Measured values from different studies.
Compare with care: the assays were run in different laboratories.
Organism: Acinetobacter baumannii

| SMILES | test | system | setting | MIC |
| --- | --- | --- | --- | --- |
| CC(C)C[C@@H]1NC(=O)[C@@H](CC(C)C)NC(=O)[C@H](CCN)NC(=O)[C@@H](NC(=O)[C@H](CCN)NC(=O)[C@@H](NC(=O)CCCCN=[N+]=[N-])[C@@H](C)O)CCNC(=O)[C@H]([C@@H](C)O)NC(=O)[C@H](CCN)NC(=O)[C@H](CCN)NC1=O | broth microdilution | BAA-747 |  | > 121 µM |
| CC[C@H](C)[C@H](NC(=O)[C@@H](CCCNC(=N)N)NC(=O)[C@H](CCCNC(=N)N)NC(=O)[C@@H]1CCCN1C(=O)[C@@H]1CCCN1C(=O)[C@H](CCCNC(=N)N)NC(=O)[C@@H]1CCCN1C(=O)[C@H](CCCNC(=N)N)NC(=O)[C@@H]1CCCN1C(=O)[C@H](CC(C)C)NC(=O)[C@H](Cc1ccc(O)c([N+](=O)[O-])c1)NC(=O)[C@@H]1CCCN1C(=O)[C@@H]1CCCN1C(=O)[C@H](CCCCN)NC(=O)[C@H](CC(=O)O)NC(=O)[C@@H](N)C(C)C)C(=O)N[C@@H](Cc1ccc(O)cc1)C(=O)N[C@@H](CC(N)=O)C(=O)N[C@H](CCCNC(=N)N)C(N)=O | broth microdilution | DSM 30008 | 18 h, 37 °C, 25% MHB2 | 64 µg/mL |
| CCCCCCCC(=O)N[C@@H](CCN)C(=O)N[C@H](C(=O)N[C@@H](CCN)C(=O)N[C@H]1CCNC(=O)[C@H]([C@@H](C)O)NC(=O)[C@H](CCN)NC(=O)[C@H](CCN)NC(=O)[C@H](Cc2ccc(Br)cc2)NC(=O)[C@@H](CC(C)C)NC(=O)[C@H](CCN)NC1=O)[C@@H](C)O | broth microdilution | colistin-resistant isolates |  | 1 to 2 µg/mL |
| CC[C@H](C)[C@H](NC(=O)[C@@H](CCCNC(=N)N)NC(=O)[C@H](CCCNC(=N)N)NC(=O)[C@@H]1CCCN1C(=O)[C@@H]1CCCN1C(=O)[C@H](CCCNC(=N)N)NC(=O)[C@@H]1CCCN1C(=O)[C@H](CCCNC(=N)N)NC(=O)[C@@H]1CCCN1C(=O)[C@H](CC(C)C)NC(=O)[C@H](Cc1ccc(O)cc1)NC(=O)[C@H](Cc1c[nH]cn1)NC(=O)[C@@H]1CCCN1C(=O)[C@H](CCCCN)NC(=O)[C@H](CC(=O)O)NC(=O)[C@@H](N)C(C)C)C(=O)N[C@@H](Cc1ccc(O)cc1)C(=O)N[C@@H](CC(N)=O)C(=O)N[C@H](CCCNC(=N)N)C(N)=O | broth microdilution | DSM 30008 | 18 h, 37 °C, 25% MHB2 | 16 µg/mL |
| CCCCCCCC(=O)N[C@@H](CCN)C(=O)N[C@H](C(=O)N[C@@H](CCN)C(=O)N[C@H]1CCNC(=O)[C@H]([C@@H](C)O)NC(=O)[C@H](CCN)NC(=O)[C@H](CCN)NC(=O)[C@H](CC(C)C)NC(=O)[C@@H](C)NC(=O)[C@H](CCN)NC1=O)[C@@H](C)O | CLSI broth microdilution | 248-01-C.248, CAMHB | 20 h, 37 °C | 128 µg/mL |
| CC[C@H](C)[C@H](NC(=O)[C@@H](CCCNC(=N)N)NC(=O)[C@H](CCCNC(=N)N)NC(=O)[C@H](CC(C)C)NC(=O)[C@H](Cc1c[nH]c2ccccc12)NC(=O)[C@H](CCCNC(=N)N)NC(=O)[C@@H]1CCCN1C(=O)[C@H](CCCNC(=N)N)NC(=O)[C@@H]1CCCN1C(=O)[C@H](CC(C)C)NC(=O)[C@H](Cc1ccc(O)cc1)NC(=O)[C@@H]1CCCN1C(=O)[C@@H]1CCCN1C(=O)[C@H](CCCCN)NC(=O)[C@H](CC(=O)O)NC(=O)[C@@H](N)C(C)C)C(=O)N[C@@H](Cc1ccc(O)cc1)C(=O)N[C@@H](CC(N)=O)C(=O)N[C@H](CCCNC(=N)N)C(N)=O | broth microdilution | DSM 30008 | 18 h, 37 °C, 25% MHB2 | 16 µg/mL |
| C#CCOc1ccc(CN[C@@]2(C)C[C@H](O[C@H]3[C@H](Oc4c5cc6cc4Oc4ccc(cc4Cl)[C@@H](O)[C@@H](NC(=O)[C@@H](CC(C)C)NC)C(=O)N[C@@H](CC(N)=O)C(=O)N[C@H]6C(=O)N[C@H]4C(=O)N[C@H](C(=O)N[C@H](C(=O)NCC(N)=O)c6cc(O)cc(O)c6-c6cc4ccc6O)[C@H](O)c4ccc(c(Cl)c4)O5)O[C@H](CO)[C@@H](O)[C@@H]3O)O[C@@H](C)[C@H]2O)cc1OC | broth microdilution | BAA-747 |  | 76 µM |
| CN[C@@H]1[C@H](O)[C@H](NC)[C@H]2O[C@]3(O)[C@H](O[C@@H]2[C@H]1O)O[C@H](C)C[C@H]3NC(=O)Cc1ccc(Cl)cn1 | microbial growth, broth dilution | ATCC19606 |  | > 200 µg/mL |
| N=C(N)NCCC[C@@H]1NC(=O)[C@H](CCCNC(=N)N)NC(=O)[C@@H](CCCNC(=N)N)NC(=O)[C@@H](CCCNC(=N)N)NC(=O)[C@@H](C(c2ccccc2)c2ccccc2)NC(=O)[C@H](Cc2c[nH]c3ccccc23)NC(=O)[C@@H](C(c2ccccc2)c2ccccc2)NC1=O |  | NCTC 13304, carbapenem-resistant |  | 8 µg/mL |
| CCn1c(-c2ccc(F)cc2)c(-c2ccc(F)cc2)n(CC)c1=[Se] | broth microdilution | carbapenem-resistant | 24 h | > 40 µM |
| CCCCCCCC(=O)N[C@@H](CCN)C(=O)N[C@@H](C)C(=O)N[C@@H](CCN)C(=O)N[C@H]1CCNC(=O)[C@H]([C@@H](C)O)NC(=O)[C@H](CCN)NC(=O)[C@H](CCN)NC(=O)[C@H](CC(C)C)NC(=O)[C@@H](Cc2ccccc2)NC(=O)[C@H](CCN)NC1=O | broth microdilution | ATCC 19606 | 20 h, 37 °C | > 512 µg/mL |
| CC[C@H](C)[C@H](NC(=O)CNC(=O)[C@H](CC(=O)O)NC(=O)[C@H](CCCNC(=N)N)NC(=O)[C@@H](NC(=O)[C@H](Cc1c[nH]cn1)NC(=O)[C@H](CCC(N)=O)NC(=O)CNC(=O)[C@@H](NC(=O)[C@H](CCCNC(=N)N)NC(=O)[C@H](CCC(=O)O)NC(=O)[C@@H](NC(=O)[C@H](CCCCN)NC(=O)[C@H](CCCCN)NC(=O)[C@H](Cc1ccccc1)NC(=O)[C@@H](NC(=O)[C@H](CCCCN)NC(=O)[C@H](Cc1c[nH]c2ccccc12)NC(=O)[C@@H](N)CCCCN)[C@@H](C)CC)[C@@H](C)CC)C(C)C)C(C)C)C(=O)N[C@H](C(=O)N[C@@H](CCCCN)C(=O)N[C@@H](C)C(=O)NCC(=O)N[C@@H](CO)C(=O)N[C@@H](C)C(=O)N[C@H](C(=O)N[C@@H](CCC(N)=O)C(=O)N[C@H](C(=O)N[C@H](C(=O)NCC(=O)N[C@@H](CCC(N)=O)C(=O)N[C@@H](C)C(=O)N[C@@H](C)C(=O)N[C@@H](C)C(=O)N[C@H](C(=O)N[C@@H](C)C(=O)N[C@@H](CCCCN)C(N)=O)[C@@H](C)CC)C(C)C)C(C)C)C(C)C)[C@@H](C)CC | bacterial growth, broth microdilution | cation-adjusted Mueller Hinton broth | 18 h, 37 °C | ≤ 0.062 µM |
| CC[C@H](C)[C@H](NC(=O)[C@H](C)NC(=O)[C@@H](NC(=O)[C@H](CC(=O)O)NC(=O)[C@H](CCCCN)NC(=O)[C@H](CO)NC(=O)[C@@H](NC(=O)[C@H](CC(N)=O)NC(=O)[C@H](C)NC(=O)[C@@H](NC(=O)[C@H](CCC(=O)O)NC(=O)[C@H](CCCCN)NC(=O)[C@@H](NC(=O)[C@@H](NC(=O)[C@H](Cc1c[nH]cn1)NC(=O)[C@H](CCCCN)NC(=O)[C@@H](NC(=O)[C@H](CCCCN)NC(=O)[C@H](CCCCN)NC(=O)[C@@H](NC(=O)[C@H](CC(C)C)NC(=O)[C@H](CCCCN)NC(=O)[C@H](CC(N)=O)NC(=O)[C@H](Cc1ccccc1)NC(=O)[C@H](CCCNC(=N)N)NC(=O)[C@H](CCCCN)NC(=O)[C@H](CCCNC(=N)N)NC(=O)[C@H](Cc1ccccc1)NC(=O)CN)C(C)C)C(C)C)[C@@H](C)O)[C@@H](C)CC)[C@@H](C)O)C(C)C)C(C)C)C(=O)N[C@H](C(=O)N[C@@H](C)C(=O)NCC(=O)N[C@@H](CO)C(=O)NCC(=O)N[C@H](C(=O)N[C@@H](C)C(=O)N[C@H](C(=O)NCC(=O)N[C@@H](C)C(=O)N[C@@H](C)C(=O)N[C@@H](CCSC)C(N)=O)C(C)C)C(C)C)C(C)C |  | ATCC 19606, CAMHB with 10% mouse serum | 150 mM NaCl | 0.5 µg/mL |
| CCCCCCCC(=O)N[C@@H](CCN)C(=O)N[C@H](C(=O)N[C@@H](CCN)C(=O)N[C@H]1CCNC(=O)[C@H]([C@@H](C)O)NC(=O)[C@H](CCN)NC(=O)[C@H](CCN)NC(=O)[C@H](CC(C)C)NC(=O)[C@@H](Cc2c(F)c(F)c(F)c(F)c2F)NC(=O)[C@H](CCN)NC1=O)[C@@H](C)O | broth microdilution | colistin-resistant isolates |  | 0.5 to 1 µg/mL |
| CC(C)C[C@@H](NC(=O)[C@@H](CCCNC(=N)N)NC(=O)[C@H](N)CCCNC(=N)N)C(=O)N[C@H](CC(C)C)C(=O)N[C@H](CCCNC(=N)N)C(=O)N[C@H](CCCCN)C(=O)N[C@H](CC(C)C)C(=O)N[C@H](CCCCN)C(=O)NCC(=O)N[C@H](CCCCN)C(=O)N[C@H](CCCCN)C(=O)N[C@H](CC(C)C)C(=O)N[C@H](Cc1ccc(O)cc1)C(=O)N[C@H](CC(C)C)C(=O)N[C@H](Cc1ccc(O)cc1)C(=O)N[C@H](Cc1ccccc1)C(=O)N[C@H](CCCCN)C(=O)N[C@H](CC(C)C)C(=O)N[C@H](CCC(N)=O)C(=O)N[C@H](CC(C)C)C(=O)N[C@H](CC(C)C)C(=O)N[C@H](CCCCN)C(=O)N[C@H](CCCCN)C(N)=O |  | ATCC BAA1605, Mueller-Hinton broth | 24 h | 4 µM |
| c1ccc2c(c1)nc(CNCC13CC4CC(CC(C4)C1)C3)n2CC1CCCCC1 |  | ATCC 17961 |  | > 128 µg/mL |
| CC[C@H](C)[C@H](NC(=O)[C@@H](CCCNC(=N)N)NC(=O)[C@H](CCCNC(=N)N)NC(=O)[C@@H]1CCCN1C(=O)[C@@H]1CCCN1C(=O)[C@H](CCCNC(=N)N)NC(=O)[C@@H]1CCCN1C(=O)[C@H](CCCNC(=N)N)NC(=O)[C@@H]1CCCN1C(=O)[C@H](CC(C)C)NC(=O)[C@H](Cc1ccc(O)cc1)NC(=O)[C@H](Cc1ccccc1)NC(=O)[C@@H]1CCCN1C(=O)[C@H](CCCCN)NC(=O)[C@H](CC(=O)O)NC(=O)[C@@H](N)C(C)C)C(=O)N[C@@H](Cc1ccc(O)cc1)C(=O)N[C@@H](CC(N)=O)C(=O)N[C@H](CCCNC(=N)N)C(N)=O | broth microdilution | DSM 30008 | 18 h, 37 °C, 25% MHB2 | 32 µg/mL |
| CCCCCCCC(=O)N[C@@H](CCN)C(=O)N[C@H](C(=O)N[C@@H](CCN)C(=O)N[C@H]1CCNC(=O)[C@H]([C@@H](C)O)NC(=O)[C@H](CCN)NC(=O)[C@H](CCN)NC(=O)[C@H](Cc2ccccc2)NC(=O)[C@@H](CCC(C)C)NC(=O)[C@H](CCN)NC1=O)[C@@H](C)O | broth microdilution | colistin-resistant isolates |  | 1 to 2 µg/mL |

Repeated from above:
| SMILES | test | system | setting | MIC |
| --- | --- | --- | --- | --- |
| CCCCCCCC(=O)N[C@@H](CCN)C(=O)N[C@@H](C)C(=O)N[C@@H](CCN)C(=O)N[C@H]1CCNC(=O)[C@H]([C@@H](C)O)NC(=O)[C@H](CCN)NC(=O)[C@H](CCN)NC(=O)[C@H](CC(C)C)NC(=O)[C@@H](Cc2ccccc2)NC(=O)[C@H](CCN)NC1=O | broth microdilution | ATCC 19606 | 20 h, 37 °C | > 512 µg/mL |
| c1ccc2c(c1)nc(CNCC13CC4CC(CC(C4)C1)C3)n2CC1CCCCC1 |  | ATCC 17961 |  | > 128 µg/mL |
